# Measurements gathered from unrelated publications.
# Protocols differ between the studies behind these lines.
# B1: SPDL1 54-605 (Homo sapiens, UniProt Q96EA4); sequence looked up; chain SYEQEKYTLQREVELKSRMLESLSCECEAIKQQQKMHLEKLEEQLSRSHGQEVNELKTKIEKLKVELDEARLSEKQLKHQVDHQKELLSCKSEELRVMSERVQESMSSEMLALQIELTEMESMKTTLKEEVNELQYRQEQLELLITNLMRQVDRLKEEKEEREKEAVSYYNALEKARVANQDLQVQLDQALQQALDPNSKGNSLFAEVEDRRAAMERQLISMKVKYQSLKKQNVFNREQMQRMKLQIATLLQMKGSQTEFEQQERLLAMLEQKNGEIKHLLGEIRNLEKFKNLYDSMESKPSVDSGTLEDNTYYTDLLQMKLDNLNKEIESTKGELSIQRMKALFESQRALDIERKLFANERCLQLSESENMKLRAKLDELKLKYEPEETVEVPVLKKRREVLPVDITTAKDACVNNSALGGEVYRLPPQKEETQSCPNSLEDNNLQLEKSVSIYTPVVSLSPHKNLPVDMQLKKEKKCVKLIGVPADAEALSERSGNTPNSPRLAAESKLQTEVKEGKETSSKLEKETCKKLHPILYVSSKSTPETQCPQQ
# B2: UGT1A9 (Homo sapiens, UniProt O60656); chain GKLLVVPMDGSHWFTMRSVVEKLILRGHEVVVVMPEVSWQLGRSLNCTVKTYSTSYTLEDLDREFKAFAHAQWKAQVRSIYSLLMGSYNDIFDLFFSNCRSLFKDKKLVEYLKESSFDAVFLDPFDNCGLIVAKYFSLPSVVFARGILCHYLEEGAQCPAPLSYVPRILLGFSDAMTFKERVRNHIMHLEEHLLCHRFFKNALEIASEILQTPVTEYDLYSHTSIWLLRTDFVLDYPKPVMPNMIFIGGINCHQGKPLPMEFEAYINASGEHGIVVFSLGSMVSEIPEKKAMAIADALGKIPQTVLWRYTGTRPSNLANNTILVKWLPQNDLLGHPMTRAFITHAGSHGVYESICNGVPMVMMPLFGDQMDNAKRMETKGAGVTLNVLEMTSEDLENALKAVINDKSYKENIMRLSSLHKDRPVEPLDLAVFWVEFVMRHKGAPHLRPAAHDLTWYQYHSLDVIGFLLAVVLTVAFITFKCCAYGYRKCLGKKGRVKKAHKSKTH
# B3: Mei5/Sae3 (Saccharomyces cerevisiae); chain 1 MHNQEEWLDKDKTLVNEEENTCINHSYTKKDTNNYRVGKSGIKDLKKPTNQKEIAIKNRELTKQLTLLRQENNHLQQACKILSENKIIENRKSIEKWRTICEMELSFILNSTLIKINRMGGYKDFLEKEMEAKKRRLEYQIDNGMEDQICEIKESDDFRQLSEVEKQEWESQMNEQLKELEKKKIAELEKLNKVLHDSEGKDFGMAELCTRLKLDYSLIFPQ; chain 2 MNYLETQLNKKQKQIQEYESMNGNLIKMFEQLSKEKKNDETPKKISSTYIKELKEYNELRDAGLRLAQIIADEKQCKIKDVFEEIGYSMKD
# B4: bHLH39 (Arabidopsis thaliana, UniProt Q9M1K0); sequence looked up; chain MCALVPPLFPNFGWPSTGEYDSYYLAGDILNNGGFLDFPVPEETYGAVTAVTQHQNSFGVSVSSEGNEIDNNPVVVKKLNHNASERDRRRKINSLFSSLRSCLPASGQSKKLSIPATVSRSLKYIPELQEQVKKLIKKKEELLVQISGQRNTECYVKQPPKAVANYISTVSATRLGDNEVMVQISSSKIHNFSISNVLSGLEEDRFVLVDMSSSRSQGERLFYTLHLQVEKIENYKLNCEELSQRMLYLYEECGNSYI
# B5: Kcnt2 (Rattus norvegicus, UniProt Q6UVM4); sequence looked up; chain MVDLESEVPPLPPRYRFRDLLLGDQGWQNDDRVQVEFYMNENTFKERLKLFFIKNQRSSLRIRLFNFSLKLLSCLLYIIRVLLEKPSQGNDWSHIFWVNRSLPLWGLQVSVALISLFETILLGYLSYKGNIWEQILRVPFILEIINAVPFIISIFWPTLRNLFVPVFLNCWLAKHALENMINDLHRAIQRTQSAMFNQVLILISTLLCLIFTCICGIQHLERIGKKLNLFDSLYFCIVTFSTVGFGDVTPETWSSKLFVVAMICVALVVLPIQFEQLAYLWMERQKSGGNYSRHRAQTEKHVVLCVSSLKIDLLMDFLNEFYAHPRLQDYYVVILCPTEMDVQVRRVLQIPMWSQRVIYLQGSALKDQDLLRAKMDNAEACFILSSRCEVDRTSSDHQTILRAWAVKDFAPNCPLYVQILKPENKFHIKFADHVVCEEEFKYAMLALNCICPATSTLITLLVHTSRGQCVCLCCREGQQSPEQWQKTYGRCSGNEVYHIVLEESTFFAEYEGKSFTYASFHAHKKFGVCLVGVRREDNKNILLNPGPRYIMNASDICFYINITKEENSAFKNQDQQRKSNVSRSFYHGPSRLPVHSIIASMGTVAIDLQDTSCRAASGPTLALPSEGGKELRRPSIAPVLEVADTSSIQTCDLLSDQSEDETTPDEETSSNLEYAKGYPPYSPYIGSSPTFCHLLQEKVPFCCLRLDKSCQHNYYEDAKAYGFKNKLIIVAAETAGNGLYNFIVPLRAYYRPKKELNPIVLLLDNPPDMHFLDAICWFPMVYYMVGSIDNLDDLLRCGVTFAANMVVVDKESTMSAEEDYMADAKTIVNVQTLFRLFSSLSIITELTHPANMRFMQFRAKDCYSLALSKLEKKERERGSNLAFMFRLPFAAGRVFSISMLDTLLYQSFVKDYMISITRLLLGLDTIPGSGFLCSMKITEDDLWIRTYARLYQKLCSSTGDVPIGIYRTESQKLTTSESQISISVEEWEDTKDVKDPGHHRSIHRNSTSSDQSDHPLLRRKSMQWARRLSRKGPKHSGKTAEKITQQRLNLYRRSERQELAELVKNRMKHLGLSTVGYDEMNDHQSTLSYILINPSPDTRLELNDVVYLIRPDPLSYLPNSEPSRKNSICNAAVQDSREETQL
# Chain of UniProt P09038 (whole entry, looked up): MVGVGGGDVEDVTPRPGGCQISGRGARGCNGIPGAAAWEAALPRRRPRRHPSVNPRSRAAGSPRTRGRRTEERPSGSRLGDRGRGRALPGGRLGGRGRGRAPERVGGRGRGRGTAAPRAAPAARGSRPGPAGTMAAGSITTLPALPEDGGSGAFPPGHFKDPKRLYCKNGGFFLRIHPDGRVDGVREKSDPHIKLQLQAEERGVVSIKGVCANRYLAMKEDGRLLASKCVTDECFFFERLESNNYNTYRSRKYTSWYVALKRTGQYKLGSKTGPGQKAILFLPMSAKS
# Chain of UniProt P23242 (whole entry, looked up): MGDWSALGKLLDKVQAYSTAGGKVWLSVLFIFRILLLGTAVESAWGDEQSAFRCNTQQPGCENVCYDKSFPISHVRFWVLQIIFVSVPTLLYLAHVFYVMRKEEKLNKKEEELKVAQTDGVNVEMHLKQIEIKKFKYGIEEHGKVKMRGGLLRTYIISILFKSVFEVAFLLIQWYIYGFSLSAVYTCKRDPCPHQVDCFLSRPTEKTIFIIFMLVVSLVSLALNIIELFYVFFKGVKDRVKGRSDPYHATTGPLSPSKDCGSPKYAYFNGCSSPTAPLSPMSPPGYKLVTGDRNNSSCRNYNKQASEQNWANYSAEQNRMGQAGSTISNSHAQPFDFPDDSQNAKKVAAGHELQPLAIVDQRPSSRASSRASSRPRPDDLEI
# Chain of UniProt P53350 (whole entry, looked up): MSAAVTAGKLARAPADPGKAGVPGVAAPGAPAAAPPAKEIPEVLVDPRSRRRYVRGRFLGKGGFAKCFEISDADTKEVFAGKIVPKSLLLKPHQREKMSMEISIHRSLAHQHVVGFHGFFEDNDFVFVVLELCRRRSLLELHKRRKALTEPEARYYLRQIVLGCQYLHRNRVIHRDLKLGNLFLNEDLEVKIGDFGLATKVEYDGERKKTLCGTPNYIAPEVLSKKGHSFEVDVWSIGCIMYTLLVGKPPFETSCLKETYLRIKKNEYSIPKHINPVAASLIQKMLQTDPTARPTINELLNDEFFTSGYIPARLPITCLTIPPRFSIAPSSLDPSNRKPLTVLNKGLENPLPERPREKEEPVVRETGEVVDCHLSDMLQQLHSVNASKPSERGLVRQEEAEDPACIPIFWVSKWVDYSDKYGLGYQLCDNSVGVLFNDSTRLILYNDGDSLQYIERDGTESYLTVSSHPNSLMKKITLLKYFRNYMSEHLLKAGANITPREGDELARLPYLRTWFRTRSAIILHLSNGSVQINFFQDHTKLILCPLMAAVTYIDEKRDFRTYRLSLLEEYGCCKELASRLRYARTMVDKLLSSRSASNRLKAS
# Chain of UniProt Q68FD5 (whole entry, looked up): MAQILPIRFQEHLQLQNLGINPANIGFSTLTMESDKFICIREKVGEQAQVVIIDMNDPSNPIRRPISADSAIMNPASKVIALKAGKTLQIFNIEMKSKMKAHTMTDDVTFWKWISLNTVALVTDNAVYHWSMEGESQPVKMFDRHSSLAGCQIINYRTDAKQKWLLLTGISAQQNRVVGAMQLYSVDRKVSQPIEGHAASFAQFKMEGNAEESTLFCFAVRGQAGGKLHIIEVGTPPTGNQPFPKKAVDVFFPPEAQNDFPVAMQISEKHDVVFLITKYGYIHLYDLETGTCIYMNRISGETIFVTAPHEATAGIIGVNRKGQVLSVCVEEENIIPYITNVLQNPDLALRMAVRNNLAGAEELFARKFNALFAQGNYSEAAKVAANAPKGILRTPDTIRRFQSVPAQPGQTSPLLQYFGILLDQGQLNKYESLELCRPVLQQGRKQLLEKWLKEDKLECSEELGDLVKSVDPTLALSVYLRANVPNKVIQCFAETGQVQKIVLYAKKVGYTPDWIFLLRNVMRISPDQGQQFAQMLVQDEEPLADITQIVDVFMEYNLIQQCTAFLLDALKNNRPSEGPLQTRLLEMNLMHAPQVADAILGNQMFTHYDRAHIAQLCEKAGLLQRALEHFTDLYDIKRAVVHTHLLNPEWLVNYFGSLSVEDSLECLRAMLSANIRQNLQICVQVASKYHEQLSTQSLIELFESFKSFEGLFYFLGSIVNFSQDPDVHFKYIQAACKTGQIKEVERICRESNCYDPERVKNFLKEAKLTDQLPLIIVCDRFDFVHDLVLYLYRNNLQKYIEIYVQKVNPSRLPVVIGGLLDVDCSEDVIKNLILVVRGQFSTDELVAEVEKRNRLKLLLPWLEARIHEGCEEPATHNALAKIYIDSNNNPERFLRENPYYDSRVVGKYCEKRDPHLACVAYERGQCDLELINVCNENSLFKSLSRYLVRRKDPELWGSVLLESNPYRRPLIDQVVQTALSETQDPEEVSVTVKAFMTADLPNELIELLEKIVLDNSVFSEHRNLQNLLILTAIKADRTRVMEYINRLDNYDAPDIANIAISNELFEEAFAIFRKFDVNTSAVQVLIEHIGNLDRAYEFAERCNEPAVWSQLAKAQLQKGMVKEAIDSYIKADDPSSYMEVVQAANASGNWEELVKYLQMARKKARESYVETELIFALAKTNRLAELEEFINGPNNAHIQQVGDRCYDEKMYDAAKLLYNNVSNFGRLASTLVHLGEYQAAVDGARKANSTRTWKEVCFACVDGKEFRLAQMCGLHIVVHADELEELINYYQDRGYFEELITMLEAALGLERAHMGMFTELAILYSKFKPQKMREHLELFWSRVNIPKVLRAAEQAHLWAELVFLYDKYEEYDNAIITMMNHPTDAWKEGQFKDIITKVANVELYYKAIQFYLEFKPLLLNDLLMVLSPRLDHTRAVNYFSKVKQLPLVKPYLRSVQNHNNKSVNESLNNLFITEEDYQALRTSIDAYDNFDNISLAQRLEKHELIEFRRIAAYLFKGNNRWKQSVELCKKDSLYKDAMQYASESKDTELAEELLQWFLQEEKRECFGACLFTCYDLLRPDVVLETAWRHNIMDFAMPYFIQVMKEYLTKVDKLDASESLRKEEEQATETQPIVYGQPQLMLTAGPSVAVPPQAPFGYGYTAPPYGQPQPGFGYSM
# Chain of UniProt O09100 (whole entry, looked up): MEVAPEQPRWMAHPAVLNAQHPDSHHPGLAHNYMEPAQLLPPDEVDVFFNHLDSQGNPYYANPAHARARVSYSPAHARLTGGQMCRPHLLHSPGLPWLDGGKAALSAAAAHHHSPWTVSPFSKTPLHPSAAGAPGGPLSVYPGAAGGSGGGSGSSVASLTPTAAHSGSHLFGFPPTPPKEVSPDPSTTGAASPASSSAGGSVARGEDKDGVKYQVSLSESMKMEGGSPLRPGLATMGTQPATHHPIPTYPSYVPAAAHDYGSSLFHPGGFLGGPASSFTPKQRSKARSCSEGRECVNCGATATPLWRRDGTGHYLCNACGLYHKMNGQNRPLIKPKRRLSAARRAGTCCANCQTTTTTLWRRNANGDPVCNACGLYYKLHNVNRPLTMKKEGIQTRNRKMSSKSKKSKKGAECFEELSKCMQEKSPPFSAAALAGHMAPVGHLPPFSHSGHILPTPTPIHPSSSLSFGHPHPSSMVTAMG
# Chain of UniProt O75899 (whole entry, looked up): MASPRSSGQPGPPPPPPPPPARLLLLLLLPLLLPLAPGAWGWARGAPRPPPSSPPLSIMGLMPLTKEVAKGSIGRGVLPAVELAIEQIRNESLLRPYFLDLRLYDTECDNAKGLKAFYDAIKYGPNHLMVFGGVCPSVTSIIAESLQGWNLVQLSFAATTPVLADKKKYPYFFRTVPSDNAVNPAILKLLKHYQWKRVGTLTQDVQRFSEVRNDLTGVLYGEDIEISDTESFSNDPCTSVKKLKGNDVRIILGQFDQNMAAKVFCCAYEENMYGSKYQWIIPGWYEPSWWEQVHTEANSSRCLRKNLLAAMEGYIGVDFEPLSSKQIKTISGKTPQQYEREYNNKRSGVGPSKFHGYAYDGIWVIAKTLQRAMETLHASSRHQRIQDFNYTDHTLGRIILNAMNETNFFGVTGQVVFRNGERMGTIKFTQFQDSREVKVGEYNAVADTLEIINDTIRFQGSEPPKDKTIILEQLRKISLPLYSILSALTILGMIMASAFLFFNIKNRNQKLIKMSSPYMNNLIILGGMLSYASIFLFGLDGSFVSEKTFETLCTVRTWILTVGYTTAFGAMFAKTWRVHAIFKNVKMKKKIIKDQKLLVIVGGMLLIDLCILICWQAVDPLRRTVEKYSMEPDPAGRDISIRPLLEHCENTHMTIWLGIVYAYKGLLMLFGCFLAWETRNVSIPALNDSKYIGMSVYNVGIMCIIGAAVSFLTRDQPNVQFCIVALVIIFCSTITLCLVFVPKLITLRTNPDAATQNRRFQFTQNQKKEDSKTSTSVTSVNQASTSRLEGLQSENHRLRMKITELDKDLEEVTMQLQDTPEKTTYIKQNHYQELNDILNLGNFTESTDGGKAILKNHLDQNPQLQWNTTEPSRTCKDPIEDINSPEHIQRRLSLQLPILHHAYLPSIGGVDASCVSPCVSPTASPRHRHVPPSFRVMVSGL
# Chain of UniProt P41163 (whole entry, looked up): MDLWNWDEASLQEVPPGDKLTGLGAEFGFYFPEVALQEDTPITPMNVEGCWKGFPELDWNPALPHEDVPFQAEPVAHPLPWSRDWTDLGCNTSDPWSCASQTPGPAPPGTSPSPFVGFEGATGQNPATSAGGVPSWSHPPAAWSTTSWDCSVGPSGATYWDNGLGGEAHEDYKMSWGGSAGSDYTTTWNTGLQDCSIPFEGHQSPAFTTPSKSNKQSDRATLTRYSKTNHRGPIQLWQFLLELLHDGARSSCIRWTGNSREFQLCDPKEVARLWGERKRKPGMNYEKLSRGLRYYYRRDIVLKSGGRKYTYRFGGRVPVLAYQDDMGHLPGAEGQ
# Chain of UniProt P25453 (whole entry, looked up): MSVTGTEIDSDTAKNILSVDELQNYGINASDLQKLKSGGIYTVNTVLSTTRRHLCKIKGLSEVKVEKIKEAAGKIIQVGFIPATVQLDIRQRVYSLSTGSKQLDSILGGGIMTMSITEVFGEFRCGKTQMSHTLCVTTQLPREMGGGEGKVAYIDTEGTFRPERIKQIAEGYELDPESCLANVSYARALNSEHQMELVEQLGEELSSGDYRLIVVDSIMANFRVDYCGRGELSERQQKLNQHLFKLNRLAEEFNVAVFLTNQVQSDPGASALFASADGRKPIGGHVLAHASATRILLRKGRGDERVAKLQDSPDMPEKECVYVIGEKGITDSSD
Molecule,tested on,test,test system,setting,how to read,measurement,result
B1 (SPDL1 54-605),KNTC1/ZW10/ZWILCH,SPR,,,,molecule per partner,> 4
CGA/LHB (Equus caballus),LHCGR M410T (eel),"cAMP response, agonist, HTRF",CHO-K1,"30 min, room temperature",,EC50,0.0217 µg/mL
"Cltc (Mus musculus, UniProt Q68FD5)","Gja1, pS262; pS279/282; pS368 (Mus musculus, UniProt P23242)",co-IP,"mES cells, lysate","30 min, 4 °C, with: EGF 100 ng/mL","baseline: untreated colonies, higher = more co-precipitation",co-precipitated clathrin heavy chain,5.9 fold
B2 (UGT1A9),Cc1c(-c2ccccc2)oc2cc(O)ccc2c1=O,steady-state kinetics,,"pH 7.4, 37 °C",,Km,1.46 µM
B3 (Mei5/Sae3),"DMC1 (Saccharomyces cerevisiae, UniProt P25453)",smFRET,,,"baseline: Dmc1 alone, higher = faster dissociation",apparent Dmc1 dissociation rate,2 fold
B4 (bHLH39),"FIT Y238F (Arabidopsis thaliana, UniProt Q0V7X4)",SEAP reporter,CHO,,"baseline: wild-type FIT, higher = more reporter activity",reporter activation,20%
AAEDWCKKGDT,,,"peptide, human polyclonal IgM RF CLAU","concentration not given, 5 µg/mL mAb II-481 coated, with: RF at 50% max binding concentration",,inhibition,0%
"RCVRLHESCLGQQVPCCDPCATCYCRFFNAFCYCRKLGTAMNPCSRT (AGRP 86-132 (Homo sapiens, UniProt O00253); sequence looked up)","MC4R D189N (Homo sapiens, UniProt P32245)","cAMP, inverse agonist, AlphaScreen",HEK293,apparent,,inverse agonist EC50,30 nM
"LHST (CENPU residues 75-78, macrocycle 22-ring, imidazolium, pThr, C-amide; macrocycle 22-ring, imidazolium, pThr, C-amide)","PLK1 (Homo sapiens, UniProt P53350)","competition with ligand, ELISA","peptide, lysate",,,IC50,240 nM
"FGF2 (Homo sapiens, UniProt P09038)","FGFR3 isoform IIIc (unknown, UniProt Q61851)","cell proliferation, MTT",BaF3-FGFR3c,"20 nM, 48 h, with: heparin 4.9 µg/mL","baseline: FGF 1 with heparin, higher = more proliferation",cell proliferation,94%
B5 (Kcnt2),"Kcnt1 (Rattus norvegicus, UniProt Q9Z258-1)",two-electrode voltage clamp,Xenopus oocytes,,"baseline: molecule alone, higher = larger current",whole-oocyte current,25 fold
"Etv2 (Mus musculus, UniProt P41163)","Gata2 (Mus musculus, UniProt O09100)",Tie2 promoter luciferase,C2C12,,higher = more activation,reporter activity,64 fold
LHNHYT,,,"peptide, human polyclonal IgM RF CLAU","concentration not given, 5 µg/mL mAb II-481 coated, with: RF at 50% max binding concentration",,inhibition,0%
"GABBR1 GABAB1b isoform, full length E309K (Homo sapiens)","GABBR2 (Homo sapiens, UniProt O75899)",anti-Flag M1 on intact cells,,,"baseline: WT/WT heterodimer, higher = more surface expression",cell surface expression,107%

# For quick reference, copied from above:
Molecule,tested on,test,test system,setting,how to read,measurement,result
AAEDWCKKGDT,,,"peptide, human polyclonal IgM RF CLAU","concentration not given, 5 µg/mL mAb II-481 coated, with: RF at 50% max binding concentration",,inhibition,0%
